Measured values pooled from the literature.
Compare with care: the assays were run in different laboratories. Numbers after ± are the reported error.
Chain of UniProt Q9Y2K6 (whole entry, looked up): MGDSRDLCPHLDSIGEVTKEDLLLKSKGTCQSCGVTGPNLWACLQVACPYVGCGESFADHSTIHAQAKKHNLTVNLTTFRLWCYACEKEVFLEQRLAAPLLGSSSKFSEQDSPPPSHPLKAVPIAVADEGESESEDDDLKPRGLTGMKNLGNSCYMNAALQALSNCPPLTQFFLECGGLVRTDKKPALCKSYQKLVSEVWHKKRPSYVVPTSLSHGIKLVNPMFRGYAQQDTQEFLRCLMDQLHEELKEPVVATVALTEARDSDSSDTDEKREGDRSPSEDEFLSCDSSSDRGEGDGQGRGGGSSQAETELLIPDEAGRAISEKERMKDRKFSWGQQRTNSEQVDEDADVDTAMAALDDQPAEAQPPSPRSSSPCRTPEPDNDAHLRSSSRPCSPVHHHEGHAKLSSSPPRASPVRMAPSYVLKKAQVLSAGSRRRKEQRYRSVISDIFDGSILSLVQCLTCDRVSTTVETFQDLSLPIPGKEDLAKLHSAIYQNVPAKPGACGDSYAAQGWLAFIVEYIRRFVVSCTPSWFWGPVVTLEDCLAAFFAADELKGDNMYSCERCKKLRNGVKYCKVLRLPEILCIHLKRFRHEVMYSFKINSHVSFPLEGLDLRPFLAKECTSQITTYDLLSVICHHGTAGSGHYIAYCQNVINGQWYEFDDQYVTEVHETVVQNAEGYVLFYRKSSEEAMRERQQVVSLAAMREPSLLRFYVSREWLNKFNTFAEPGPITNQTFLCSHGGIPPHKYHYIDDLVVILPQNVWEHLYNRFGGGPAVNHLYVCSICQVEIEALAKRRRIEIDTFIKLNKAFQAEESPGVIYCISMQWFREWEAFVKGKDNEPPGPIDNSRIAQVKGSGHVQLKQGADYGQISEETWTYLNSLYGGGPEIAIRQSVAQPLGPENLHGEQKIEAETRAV
Chain of UniProt Q53GS9 (whole entry, looked up): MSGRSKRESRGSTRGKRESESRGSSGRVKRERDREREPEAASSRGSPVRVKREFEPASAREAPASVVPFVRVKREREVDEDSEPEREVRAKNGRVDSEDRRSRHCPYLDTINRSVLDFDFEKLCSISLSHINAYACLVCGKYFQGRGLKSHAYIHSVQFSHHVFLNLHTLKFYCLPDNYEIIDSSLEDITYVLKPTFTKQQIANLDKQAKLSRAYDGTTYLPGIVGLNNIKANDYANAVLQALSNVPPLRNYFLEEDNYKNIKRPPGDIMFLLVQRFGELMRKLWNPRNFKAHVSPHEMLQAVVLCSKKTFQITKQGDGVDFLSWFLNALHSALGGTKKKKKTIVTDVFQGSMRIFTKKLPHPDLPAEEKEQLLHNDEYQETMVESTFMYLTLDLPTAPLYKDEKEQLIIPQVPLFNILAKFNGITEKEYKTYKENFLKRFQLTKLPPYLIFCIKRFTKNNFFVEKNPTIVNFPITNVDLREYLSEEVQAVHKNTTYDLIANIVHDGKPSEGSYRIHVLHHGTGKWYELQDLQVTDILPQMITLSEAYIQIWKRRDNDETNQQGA

| SMILES | tested on | test | system | setting | how to read | quantity | result |
| --- | --- | --- | --- | --- | --- | --- | --- |
| Cc1ncc(CO)c(CN)c1O | – | binding, equilibrium dialysis LC-MS | – | 5 µM, thermostabilized A2AR-BRIL construct | relative to: no-protein control, direction not given | z-scored log2 fold change | 0.246 |
| C[C@@H](Oc1cc(-c2cnn(C3CCNCC3)c2)cnc1N)c1c(Cl)ccc(F)c1Cl | iCell Cardiomyocytes (hiPSC-derived) | cellular impedance | – | concentration not given, 24 h | relative to: control | cell index | 102% |
| O=C(O)CCC(=O)c1cccs1 | Ubiquitin carboxyl-terminal hydrolase 20, ZnF-UBD domain (USP20, Homo sapiens, UniProt Q9Y2K6) | – | – | – | – | Kd | 272 µM |
| Cc1nc(-c2cn3c(n2)-c2ccc(-c4cnn(C(C)(C)C(N)=O)c4)cc2OCC3)n(C(C)C)n1 | NLRP3 inflammasome (mouse) | – | mouse BMDM | 10 µM | – | inhibition | 6.67% |
| CC1CCC(CC(=O)Nc2nnc(S(N)(=O)=O)s2)CC1 (stereo not shown) | Alpha-carbonic anhydrase (Enterococcus faecium, UniProt Q3XYE8) | CO2 hydration, inhibitor, stopped-flow kinetics | – | – | – | Ki | 0.0298 µM |
| CN(C)C[C@@H]1CCn2cc(c3ccccc32)C2=C(C(=O)NC2=O)c2cn(c3ccccc23)CCO1 | iCell Cardiomyocytes (hiPSC-derived) | xCELLigence Cardio impedance | – | concentration not given, 2 h | relative to: control | beat amplitude | 95.4% |
| NC(=O)c1cnc2[nH]ccc2c1N[C@@H]1[C@@H]2CC3C[C@H]1C[C@@](O)(C3)C2 | – | CD8+ naive T cells, flow cytometry | Caucasian humans, peripheral blood | 20 mg single dose | relative to: baseline | percent change | -0.28% |
| Cn1ccc(=O)c(C(N)=O)c1 | – | binding, equilibrium dialysis LC-MS | – | 5 µM, thermostabilized A2AR-BRIL construct | relative to: no-protein control, direction not given | z-scored log2 fold change | 0.088 |
| CC(C)NCC(O)c1ccc(O)c(O)c1 (stereo not shown) | – | – | ventricular cardiomyocytes, C57BL/6 mouse | dose not given, 0.504 s | – | sarcomere length | 1.51 µm |
| Oc1ccccc1-c1n[nH]cc1-c1ccnc2ccccc12 | NPR1 (Candida albicans) | kinase binding, MIB/MS competition | Candida albicans lysate | 10 µM | relative to: DMSO | log2 fold change | 0.04 |
| C#Cc1cccc(Nc2ncnc3cc(OCCOC)c(OCCO)cc23)c1 | NLRP3 inflammasome (mouse) | – | mouse BMDM | 10 µM | – | inhibition | 53.9% |
| Nc1ccn([C@@H]2O[C@H](CO)[C@@H](O)C2(F)F)c(=O)n1 | human alphaherpesvirus 1 | live-cell GFP imaging | primary human fibroblasts, K26 GFP | – | – | IC50 | 0.05 µM |
| NCCCC[C@H](N)C(=O)O | – | binding, equilibrium dialysis LC-MS | – | 5 µM, thermostabilized A2AR-BRIL construct | relative to: no-protein control, direction not given | z-scored log2 fold change | 0.359 |
| Nc1nc(-c2ccccc2)nc2[nH]nc(Nc3ccc(C(F)(F)F)cc3)c12 | coxsackievirus B3 | – | 31-1-93, NMRI mice, CVB3 chronic myocarditis | oral, 100 mg/kg twice daily, day 21, dosed days 3 to 10, score scale 0 to 7 | direction not given | clinical score | 0.4 |
| OC(CCN1CCCCC1)(c1ccccc1)C1CC2C=CC1C2 (stereo not shown) | – | resting-state EEG | healthy elderly humans | oral, 4 mg, eyes open, LS mean | relative to: baseline | change, Gamma EEG power, in Fz-Cz | 33.2% |
| C1=N/C2=N/c3ccc(OCCN4CCCC4)c(c3)COC/C=C/COCc3cccc(c3)C(=C1)N2 | NLRP3 inflammasome (mouse) | – | mouse BMDM | 10 µM | – | inhibition | -62.9% |
| CC(O)CC(=O)SCCNC(=O)CCNC(=O)[C@H](O)C(C)(C)COP(=O)(O)OP(=O)(O)OC[C@H]1O[C@@H](n2cnc3c(N)ncnc32)[C@H](O)[C@@H]1OP(=O)(O)O (stereo partly shown) | – | binding, equilibrium dialysis LC-MS | – | 5 µM, thermostabilized A2AR-BRIL construct | relative to: no-protein control, direction not given | z-scored log2 fold change | -0.576 |
| Cc1ccc(Nc2nccc(N(C)c3ccc4c(C)n(C)nc4c3)n2)cc1S(N)(=O)=O | iCell Cardiomyocytes (hiPSC-derived) | xCELLigence Cardio impedance | – | concentration not given, 2 h | relative to: control | beat rate | 95.7% |
| COc1ncc(-c2ccc3nccc(-c4ccnnc4)c3c2)cc1NS(=O)(=O)c1ccc(F)cc1F | NLRP3 inflammasome (mouse) | – | mouse BMDM | 10 µM | – | inhibition | 44.8% |
| O=C(O)CCC(=O)c1ccc(S(=O)(=O)N2CCCC2)cc1 | Ubiquitin carboxyl-terminal hydrolase 39, ZnF-UBD domain (Homo sapiens, UniProt Q53GS9) | – | – | – | – | Kd | > 1000 µM |
| OC[C@@H](O)[C@@H](O)[C@H](O)[C@@H](O)CO | – | binding, equilibrium dialysis LC-MS | – | 5 µM, thermostabilized A2AR-BRIL construct | relative to: no-protein control, direction not given | z-scored log2 fold change | 0.0815 |
| CC(C)C[C@@H]1NC(=O)[C@H](CC(=O)O)NC(=O)CNC(=O)[C@H](CCCNC(=N)N)NC(=O)[C@H](Cc2ccc(O)cc2)NC(=O)[C@H](CCCCNC(=O)CCc2cn(CCCNC(=O)CCP(=O)(O)CN3CCN(CP(=O)(O)CCC(=O)NCCCn4cc(CCC(=O)NCCCC[C@H]5C(=O)N[C@@H](Cc6ccc(O)cc6)C(=O)N[C@@H](CCCNC(=N)N)C(=O)NCC(=O)N[C@@H](CC(=O)O)C(=O)N[C@@H](CC(C)C)C(=O)N[C@@H](C)C(=O)N[C@@H](Cc6ccc(O)cc6)C(=O)N6CCC[C@@H]6C(=O)N5C)nn4)CCN(CP(=O)(O)CCC(=O)NCCCn4cc(CCC(=O)NCCCC[C@H]5C(=O)N[C@@H](Cc6ccc(O)cc6)C(=O)N[C@@H](CCCNC(=N)N)C(=O)NCC(=O)N[C@@H](CC(=O)O)C(=O)N[C@@H](CC(C)C)C(=O)N[C@@H](C)C(=O)N[C@@H](Cc6ccc(O)cc6)C(=O)N6CCC[C@@H]6C(=O)N5C)nn4)CC3)nn2)N(C)C(=O)[C@H]2CCCN2C(=O)[C@H](Cc2ccc(O)cc2)NC(=O)[C@H](C)NC1=O [gallium-68 labelled] | – | PET imaging | SCID mice with H2009 tumour, tumour | 75 min | – | tissue uptake | 2.3 ± 0.2 %ID/g |
| CO[C@@H]1[C@H](N(C)C(=O)c2ccccc2)C[C@H]2O[C@]1(C)n1c3ccccc3c3c4c(c5c6ccccc6n2c5c31)C(=O)NC4 | iCell Cardiomyocytes (hiPSC-derived) | xCELLigence Cardio impedance | – | concentration not given, 2 h | relative to: control | beat amplitude | 77.2% |
| CNC(=O)c1c(C)oc2cc(Oc3ncnc4cc(OC)c(OC)cc34)ccc12 | NLRP3 inflammasome (mouse) | – | mouse BMDM | 10 µM | – | inhibition | 23.8% |
| O=P(O)(O)OC[C@H](O)CO | – | binding, equilibrium dialysis LC-MS | – | 5 µM, thermostabilized A2AR-BRIL construct | relative to: no-protein control, direction not given | z-scored log2 fold change | 0.304 |

Excerpt of the above:
| SMILES | tested on | test | system | setting | how to read | quantity | result |
| --- | --- | --- | --- | --- | --- | --- | --- |
| Nc1ccn([C@@H]2O[C@H](CO)[C@@H](O)C2(F)F)c(=O)n1 | human alphaherpesvirus 1 | live-cell GFP imaging | primary human fibroblasts, K26 GFP | – | – | IC50 | 0.05 µM |
| NCCCC[C@H](N)C(=O)O | – | binding, equilibrium dialysis LC-MS | – | 5 µM, thermostabilized A2AR-BRIL construct | relative to: no-protein control, direction not given | z-scored log2 fold change | 0.359 |
| Nc1nc(-c2ccccc2)nc2[nH]nc(Nc3ccc(C(F)(F)F)cc3)c12 | coxsackievirus B3 | – | 31-1-93, NMRI mice, CVB3 chronic myocarditis | oral, 100 mg/kg twice daily, day 21, dosed days 3 to 10, score scale 0 to 7 | direction not given | clinical score | 0.4 |
